Published values from different studies.
Each numbered part is a random draw from the data of one study; scales do not carry over between parts. Changes are numbered by the printed parent chain.

Series 1
Target: Interferon regulatory factor 5, full length, phosphomimetic (IRF5, Homo sapiens, UniProt Q13568-2, residues 1-514, S451D/S453D/S456D/S462D)
Method: protein-binding microarray
Molecule type: double-stranded DNA, one strand shown
Matrix: in vitro
Tested at: 940 nM top
Notes: 60-bp whole probe
Added: salmon DNA 0.4 mg/ml
Relative to: random background probes
Reading: higher = stronger binding
Measurement: fitted relative affinity
Shared flanks, not repeated: GCCTAGCAC … GTCTTGATTCGCTTGACGCTGCTG
GACGGGTTCGGGTTTCGGGACGTGCTA: 2.03 z-score
GACGAACTAAGTTTCGAGACGTGCTAG: 3.33 z-score
TTAGGTACCGGTTTCGGTTAGTGCTAG: 7.94 z-score
GACGATAGCGGGTATCGAGACGTGCTA: 1.11 z-score
GACGCTTTCCTTTTCCTGACGTGCTAG: 1.43 z-score
TGAGAACTGAGTCTCGATTAGTGCTAG: 3.23 z-score
TTAGATTTAGGGACTGGATTAGTGCTA: -0.215 z-score
TAAGAACTGAGACTGGATTAGTGCTAG: 0.0854 z-score
TGAGGTTTCCTTATCCTTTAGTGCTAG: 1 z-score
GACGGACTGGTCTATCGGGACGTGCTA: -0.161 z-score
GACGATTTAAGTTTCGAGACGTGCTAG: 4.13 z-score
TTAGATATCGGGTATCAATTAGTGCTA: 0.718 z-score
CATTTTCTAAATTCCCTAGTGTGCTAG: 0.704 z-score
GACGGTTTCGACTATTGGGACGTGCTA: 7.53 z-score
GAAGGTATCGGGACTGGGGACGTGCTA: 2.27 z-score
TCAGAAATCAGTATGTTACTGTGCTAG: -0.639 z-score
TTCGAACTGGGGTTTCGATTAGTGCTA: 5.65 z-score
ACCCTTGAGTGGTCCAGAGTGTGCTAG: -0.473 z-score
GACGGTATCGGGAATGGGGACGTGCTA: 3.34 z-score
GACGGTATCGTGTATCGGGACGTGCTA: 1.92 z-score
GACGGTATCGACACTGGGGTCGTGCTA: 4.4 z-score
TTAGGACTGGGGTATCGGATAGTGCTA: 0.548 z-score
TCATCATTGTTTTTCATACTGTGCTAG: 0.822 z-score

Series 2
Target: RNA binding protein fox-1 homolog 2, RRM domain, GST-SBP tag (RBFOX2, Homo sapiens, UniProt O43251-10, residues 100-194)
Method: RNA Bind-n-Seq
Molecule type: RNA
Matrix: in vitro
Tested at: 365 nM
Notes: natural RNA segment, single round, ends assumed
Relative to: no-protein control
Reading: higher = stronger binding
Measurement: RBNS enrichment (R)
Target sequence (chain): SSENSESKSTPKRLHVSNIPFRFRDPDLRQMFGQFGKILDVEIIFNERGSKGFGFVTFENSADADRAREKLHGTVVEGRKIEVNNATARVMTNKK
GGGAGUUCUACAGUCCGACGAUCGCCUCAUUUGCUCUUUGAACGAACCAACAUUAGCCAGUGGAGACGACUGUCUGAGACAGUUUGCACAUAGAAAAAGCAUCUGAGCCACUGGAGGGAAGGAUUUGGCAAAGUGGAAUUCUCGGGUGCCAA: 1.81
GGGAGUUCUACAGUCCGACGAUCCAGACAGACUUGAGUCUGUAAAGACAAGCAAAUACACUGACAGAAGUUUACCAUAGUUUCUAAAAUGUAAAAAAGAAAACCCCCAAAAGACUCAAGAAAAUUAGACCACAUGGAAUUCUCGGGUGCCAA: 0.41
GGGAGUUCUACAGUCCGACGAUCUUUUAGCCUAACCCUGAUCCCUUAACUGGUGCACCCCAGCCCCCGUGUUCGGGGCUCCCACCAUCUGUCCAGCCUUCUUGGCCACCAGCUCUGUCCCUCCUUCCUAGAUAUGGAAUUCUCGGGUGCCAA: 0.667
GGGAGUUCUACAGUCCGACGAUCUUAAAGUAUUACUAUAGCAUGCCUCUCAGAACUGCUAGCUUCCUAAUAAACCACAAAUCCACCGUUUCUAUGUAGCUUGUAUUUGUAAAGUCUGAGUUUACCGUCUGAAUUGGAAUUCUCGGGUGCCAA: 5.69
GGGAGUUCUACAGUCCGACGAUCAAAUGUUCAUAAUUUUAAUGGAUAUUCUUUGGUGUGAAUAAUUGAAUACAACAUUUUUAAAAUAUCAUCUCUCAAGUUUGCUCUCGUUUGUGGGGAAGGCGACAGAUGCCUGGAAUUCUCGGGUGCCAA: 0.863
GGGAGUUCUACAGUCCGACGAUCUUAUUGCUACUUGAUUUUGUUAUGCAAGUUAGAUUUCAGAAGAAUAGAUUUUAAAACACUUAACCAAGCCAUUACAUCUUAAAAACAAAACAAGUAGCAUACAUUUUGUAUGGAAUUCUCGGGUGCCAA: 1.06
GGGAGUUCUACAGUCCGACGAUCGUUGAACGGUAUGCAUGGUGAAAGGAAGCUGUCUGCCUCUGACCUUUCCCCAGGCUAUGAAAAGGAAAGUGAGGGAGCGAUCAUAGUGCUGAUUAUGUCUUCACAGACUGUGGAAUUCUCGGGUGCCAA: 4.71
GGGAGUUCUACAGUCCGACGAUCGUCUCUCUUCUCCUUUAUAAAAUCCUCUGUGGUCAACUGACUACUGCGUAUCGCAGUGGAAUAAGACUGCACAGUUGCUGGUAGGUGAGUUUAAAGUCUUAAUCUAUGCAUGGAAUUCUCGGGUGCCAA: 0.748
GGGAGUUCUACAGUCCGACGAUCCUCAAAGCUUAUUUGAGUAGAAUGGGCUCAUGGGCAAUGUGAUGUUCCCUGUUAACCUUCUGUUACUCCCUGGGAGAAAGGCGCUGAGCGUGGCAUGCAGGUGUCUUUGCUGGAAUUCUCGGGUGCCAA: 1.35
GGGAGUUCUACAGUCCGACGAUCUGGCAUAAGCUGAAUCCCAAAUUUGAGUUUGGGAAGAACCAGAGAGAAAUGGAUCCCUGAGCUCUGAGCCAAGGGUGAGGAUGGGGAAACUCUAAGCUCCCACCUAAUAAUGGAAUUCUCGGGUGCCAA: 0.364
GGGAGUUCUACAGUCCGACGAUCAAAGGACAUGGAUGAGAAGAGGAGCCCGCUUCCUGUACAUAUAUUUAAGUGACAAACACGGUCAAAAGCUUAAGGGACAGGUUUUAUGGUUGCUUGUGUAAUAAAGCAUGUGGAAUUCUCGGGUGCCAA: 8.07
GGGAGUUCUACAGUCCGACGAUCAGGUUGUAAUGCAGUGGCGCAAUCUCAGCUCACUGCAACCUCUCUCUCCCGGGUUCAAGUGAUUCUCCUGCCUCAGCCUCCCAAGUAGCUGGGAUUACAGGCACCCACCAUGGAAUUCUCGGGUGCCAA: 0.338

Series 3
Target: Phosphate system positive regulatory protein PHO4, full length, GST-tagged (PHO4, Saccharomyces cerevisiae, UniProt P07270, residues 1-312)
Method: competition protein-binding microarray
Molecule type: double-stranded DNA, one strand shown
Matrix: in vitro
Tested at: 2 µM
Notes: whole 60-bp probe, lowest competitor level
Added: Cbf1 competitor, 0.05 µM
Reading: higher = stronger binding
Measurement: fluorescence intensity
Residues (chain): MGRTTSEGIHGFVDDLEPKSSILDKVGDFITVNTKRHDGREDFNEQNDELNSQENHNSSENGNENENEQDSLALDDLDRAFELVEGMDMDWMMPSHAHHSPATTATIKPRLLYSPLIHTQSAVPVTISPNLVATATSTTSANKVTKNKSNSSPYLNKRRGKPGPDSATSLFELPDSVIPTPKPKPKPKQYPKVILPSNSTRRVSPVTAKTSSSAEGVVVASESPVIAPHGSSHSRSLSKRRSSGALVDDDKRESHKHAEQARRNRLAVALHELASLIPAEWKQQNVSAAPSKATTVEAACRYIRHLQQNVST
CCTTGTCAGAGTCCGCACGGCCTTTTACTCTGGTGCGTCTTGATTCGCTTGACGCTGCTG: 4930 a.u.
CTTCTGTAAATTTGGTGCGTGGGTGGACGCGCCCCGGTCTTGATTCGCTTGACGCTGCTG: 9100 a.u.
CTAAGAAGATTGCTCAACGTGAAATACTTGCTGCTTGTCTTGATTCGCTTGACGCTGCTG: 6350 a.u.
TCCTTGTCAACGCCGTGCGTGACGGTATGATTCACAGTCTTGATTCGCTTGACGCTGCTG: 7550 a.u.
CACTGAGTACTTCCTCACCTGATCCAATCGATTTAAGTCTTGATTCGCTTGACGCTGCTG: 3190 a.u.
CGTCCTAGTGATTGCCAGGTGGGTGCCATGAGGAAGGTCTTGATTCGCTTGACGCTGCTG: 6880 a.u.
TCCCGCTATTTCGACCACGTGGAATCATTTTCGGGTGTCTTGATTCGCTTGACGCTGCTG: 18700 a.u.
AAAGGCACCAAGATTCACCTGACGAAAGGCTCCCCCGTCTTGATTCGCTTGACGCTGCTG: 3190 a.u.
ATCTGTGGGGGCACCAGCGTGACGGGGACGGTTCTAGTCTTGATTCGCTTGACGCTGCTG: 6940 a.u.
TGCGCAACAACTTTTCACGTGACTTTATGTCTAGAAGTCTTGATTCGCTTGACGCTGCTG: 10500 a.u.
CTTAAAAGTCTGGAAGGCGTGCTAATTGTCCTTTTAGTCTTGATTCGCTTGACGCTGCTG: 9880 a.u.
TTGGCGTTTGACTGTCACAGTCCCAAATCCTTGCAGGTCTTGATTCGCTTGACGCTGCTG: 3090 a.u.
CTTCTGTAAATTTGTAGCGTGGGTGGACGCGCCCCGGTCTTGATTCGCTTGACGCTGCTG: 7060 a.u.
CTTCTGTAAATTTGATTAGTGGGTGGACGCGCCCCGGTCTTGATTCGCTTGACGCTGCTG: 4670 a.u.
AGGCCCAAATGCTTGCACAGGCACAAGCTCAGGCTCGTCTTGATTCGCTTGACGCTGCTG: 4700 a.u.
CGTTTTCAGAAGTGGAATCCTGATCCAATTTGCTCTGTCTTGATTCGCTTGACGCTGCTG: 3460 a.u.
CGTCCTAGCGATTGATCGGTGGGTGCCATGAGGAAGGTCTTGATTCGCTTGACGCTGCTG: 6110 a.u.

Series 4
Target: ABI1, truncated, D143A, DHFR fusion (Arabidopsis thaliana)
Method: DHFR PCA, deep sequencing
Matrix: yeast
Notes: methotrexate growth selection, single substitutions
Added: (+)-ABA 4.8 µM
Relative to: wild-type fitted maximum
Reading: higher = stronger binding
Measurement: relative binding score
Starting sequence: PYL1, truncated, DHFR fusion (Arabidopsis thaliana); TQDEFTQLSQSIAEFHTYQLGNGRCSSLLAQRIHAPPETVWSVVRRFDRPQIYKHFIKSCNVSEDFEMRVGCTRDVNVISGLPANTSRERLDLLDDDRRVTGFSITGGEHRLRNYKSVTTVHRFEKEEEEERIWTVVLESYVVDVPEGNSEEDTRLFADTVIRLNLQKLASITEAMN
V136P: -4.93%
E174L: 9.92%
L28Q: -0.171%
C72Y: 18%
V121R: 4.48%
V136G: -2.92%
V44N: -4.54%
T6H: 73.4%
T160Y: 63.1%
V40P: 2.56%
E127N: 74.6%
D159F: -3.1%
H122M: 4.4%
I172M: 36.6%
R46H: 21.4%
L91W: 3.87%

A few entries again (series 3):
TGCGCAACAACTTTTCACGTGACTTTATGTCTAGAAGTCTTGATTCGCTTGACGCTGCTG: 10500 a.u.
CTAAGAAGATTGCTCAACGTGAAATACTTGCTGCTTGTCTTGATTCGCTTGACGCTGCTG: 6350 a.u.
AAAGGCACCAAGATTCACCTGACGAAAGGCTCCCCCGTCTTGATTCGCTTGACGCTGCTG: 3190 a.u.
CACTGAGTACTTCCTCACCTGATCCAATCGATTTAAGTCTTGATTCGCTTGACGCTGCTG: 3190 a.u.
